Measurements of several laboratories.
Every numbered part comes from another study and shows a few of its results, in no order.
UniProt Q9H0K1, sequence (whole entry, looked up): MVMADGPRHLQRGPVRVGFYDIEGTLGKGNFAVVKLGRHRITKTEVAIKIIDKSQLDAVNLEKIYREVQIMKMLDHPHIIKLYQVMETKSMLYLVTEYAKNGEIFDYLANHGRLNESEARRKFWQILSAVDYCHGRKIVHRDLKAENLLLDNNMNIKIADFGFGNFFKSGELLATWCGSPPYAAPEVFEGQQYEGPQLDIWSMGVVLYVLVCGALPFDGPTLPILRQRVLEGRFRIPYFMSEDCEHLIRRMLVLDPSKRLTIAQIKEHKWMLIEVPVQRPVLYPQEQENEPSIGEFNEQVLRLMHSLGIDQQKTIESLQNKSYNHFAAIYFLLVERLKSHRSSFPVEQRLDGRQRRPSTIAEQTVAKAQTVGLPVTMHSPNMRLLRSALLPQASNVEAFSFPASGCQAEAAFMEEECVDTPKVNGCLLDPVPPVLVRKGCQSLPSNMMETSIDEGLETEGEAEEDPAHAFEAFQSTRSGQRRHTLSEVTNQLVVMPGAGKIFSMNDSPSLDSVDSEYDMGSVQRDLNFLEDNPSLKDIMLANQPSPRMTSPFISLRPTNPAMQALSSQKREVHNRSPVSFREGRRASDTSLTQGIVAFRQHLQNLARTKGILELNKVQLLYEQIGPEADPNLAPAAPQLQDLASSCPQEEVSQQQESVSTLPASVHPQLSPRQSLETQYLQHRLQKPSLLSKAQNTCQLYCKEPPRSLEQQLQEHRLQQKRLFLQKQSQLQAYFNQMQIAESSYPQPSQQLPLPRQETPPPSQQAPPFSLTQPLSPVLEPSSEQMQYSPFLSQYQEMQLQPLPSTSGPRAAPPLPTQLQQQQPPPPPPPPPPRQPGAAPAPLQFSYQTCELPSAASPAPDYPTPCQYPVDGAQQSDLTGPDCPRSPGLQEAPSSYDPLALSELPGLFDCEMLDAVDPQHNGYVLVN
UniProt Q15349, sequence (whole entry, looked up): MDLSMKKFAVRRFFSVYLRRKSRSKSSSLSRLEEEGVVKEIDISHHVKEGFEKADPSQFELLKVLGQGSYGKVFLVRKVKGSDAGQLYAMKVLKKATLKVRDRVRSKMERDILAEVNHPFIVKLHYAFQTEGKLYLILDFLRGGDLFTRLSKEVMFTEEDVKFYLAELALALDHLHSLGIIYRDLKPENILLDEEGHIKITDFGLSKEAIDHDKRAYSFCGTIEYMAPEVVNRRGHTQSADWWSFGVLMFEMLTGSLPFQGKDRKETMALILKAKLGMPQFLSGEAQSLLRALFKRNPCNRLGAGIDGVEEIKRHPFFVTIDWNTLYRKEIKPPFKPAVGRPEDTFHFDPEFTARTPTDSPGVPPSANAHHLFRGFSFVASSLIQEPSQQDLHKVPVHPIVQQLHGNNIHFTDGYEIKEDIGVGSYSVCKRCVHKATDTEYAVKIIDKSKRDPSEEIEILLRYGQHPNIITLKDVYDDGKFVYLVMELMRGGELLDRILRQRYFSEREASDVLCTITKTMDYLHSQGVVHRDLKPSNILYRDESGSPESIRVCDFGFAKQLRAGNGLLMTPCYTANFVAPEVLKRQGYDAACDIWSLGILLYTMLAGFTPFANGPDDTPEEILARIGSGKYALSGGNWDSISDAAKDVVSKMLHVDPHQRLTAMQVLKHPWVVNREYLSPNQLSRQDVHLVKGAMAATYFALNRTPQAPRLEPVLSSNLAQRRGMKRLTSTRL
UniProt P19784, sequence (whole entry, looked up): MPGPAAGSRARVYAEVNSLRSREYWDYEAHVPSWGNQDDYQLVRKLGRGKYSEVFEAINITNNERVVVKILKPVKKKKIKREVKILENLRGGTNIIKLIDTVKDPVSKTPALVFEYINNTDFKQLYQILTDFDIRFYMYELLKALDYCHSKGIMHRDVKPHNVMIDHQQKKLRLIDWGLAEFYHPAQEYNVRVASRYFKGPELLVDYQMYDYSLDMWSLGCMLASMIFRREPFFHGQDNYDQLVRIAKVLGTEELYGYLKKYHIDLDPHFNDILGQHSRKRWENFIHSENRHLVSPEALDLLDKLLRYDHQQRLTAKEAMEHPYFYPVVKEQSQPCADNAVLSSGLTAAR
UniProt P36896, sequence (whole entry, looked up): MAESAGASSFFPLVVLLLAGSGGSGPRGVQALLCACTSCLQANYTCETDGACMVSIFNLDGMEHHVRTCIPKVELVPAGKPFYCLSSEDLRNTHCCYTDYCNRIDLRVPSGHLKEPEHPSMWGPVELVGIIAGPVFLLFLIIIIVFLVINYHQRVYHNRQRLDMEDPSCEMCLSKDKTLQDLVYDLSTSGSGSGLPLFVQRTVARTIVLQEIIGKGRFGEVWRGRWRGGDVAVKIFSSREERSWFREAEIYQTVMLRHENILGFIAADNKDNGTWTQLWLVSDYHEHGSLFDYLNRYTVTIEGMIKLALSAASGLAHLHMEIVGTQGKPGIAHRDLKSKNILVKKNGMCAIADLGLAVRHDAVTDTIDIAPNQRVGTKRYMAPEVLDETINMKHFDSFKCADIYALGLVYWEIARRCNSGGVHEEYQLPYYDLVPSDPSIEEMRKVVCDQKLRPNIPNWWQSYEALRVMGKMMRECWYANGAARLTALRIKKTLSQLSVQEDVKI
UniProt Q8N752, sequence (whole entry, looked up): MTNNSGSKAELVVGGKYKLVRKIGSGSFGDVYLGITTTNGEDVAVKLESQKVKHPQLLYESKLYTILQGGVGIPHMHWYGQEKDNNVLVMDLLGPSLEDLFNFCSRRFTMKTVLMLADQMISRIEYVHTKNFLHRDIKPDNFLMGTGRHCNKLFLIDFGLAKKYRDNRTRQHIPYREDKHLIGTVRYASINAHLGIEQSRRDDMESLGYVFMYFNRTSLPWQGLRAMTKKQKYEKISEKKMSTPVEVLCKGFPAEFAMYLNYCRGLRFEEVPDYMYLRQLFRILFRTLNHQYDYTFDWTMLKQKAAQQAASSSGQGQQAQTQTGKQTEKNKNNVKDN
UniProt Q9UQB9, sequence (whole entry, looked up): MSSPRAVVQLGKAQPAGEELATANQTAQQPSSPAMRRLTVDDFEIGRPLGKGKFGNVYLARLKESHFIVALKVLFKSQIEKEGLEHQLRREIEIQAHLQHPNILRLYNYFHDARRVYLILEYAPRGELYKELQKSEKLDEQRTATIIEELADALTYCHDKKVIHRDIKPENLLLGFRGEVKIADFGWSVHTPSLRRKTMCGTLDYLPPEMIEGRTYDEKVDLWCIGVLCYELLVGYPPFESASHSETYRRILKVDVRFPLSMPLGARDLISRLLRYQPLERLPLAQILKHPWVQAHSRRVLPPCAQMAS

Set 1
Target: Serine/threonine-protein kinase MRCK alpha (CDC42BPA, Homo sapiens, UniProt Q5VT25)
UniProt Q5VT25, sequence (whole entry, looked up): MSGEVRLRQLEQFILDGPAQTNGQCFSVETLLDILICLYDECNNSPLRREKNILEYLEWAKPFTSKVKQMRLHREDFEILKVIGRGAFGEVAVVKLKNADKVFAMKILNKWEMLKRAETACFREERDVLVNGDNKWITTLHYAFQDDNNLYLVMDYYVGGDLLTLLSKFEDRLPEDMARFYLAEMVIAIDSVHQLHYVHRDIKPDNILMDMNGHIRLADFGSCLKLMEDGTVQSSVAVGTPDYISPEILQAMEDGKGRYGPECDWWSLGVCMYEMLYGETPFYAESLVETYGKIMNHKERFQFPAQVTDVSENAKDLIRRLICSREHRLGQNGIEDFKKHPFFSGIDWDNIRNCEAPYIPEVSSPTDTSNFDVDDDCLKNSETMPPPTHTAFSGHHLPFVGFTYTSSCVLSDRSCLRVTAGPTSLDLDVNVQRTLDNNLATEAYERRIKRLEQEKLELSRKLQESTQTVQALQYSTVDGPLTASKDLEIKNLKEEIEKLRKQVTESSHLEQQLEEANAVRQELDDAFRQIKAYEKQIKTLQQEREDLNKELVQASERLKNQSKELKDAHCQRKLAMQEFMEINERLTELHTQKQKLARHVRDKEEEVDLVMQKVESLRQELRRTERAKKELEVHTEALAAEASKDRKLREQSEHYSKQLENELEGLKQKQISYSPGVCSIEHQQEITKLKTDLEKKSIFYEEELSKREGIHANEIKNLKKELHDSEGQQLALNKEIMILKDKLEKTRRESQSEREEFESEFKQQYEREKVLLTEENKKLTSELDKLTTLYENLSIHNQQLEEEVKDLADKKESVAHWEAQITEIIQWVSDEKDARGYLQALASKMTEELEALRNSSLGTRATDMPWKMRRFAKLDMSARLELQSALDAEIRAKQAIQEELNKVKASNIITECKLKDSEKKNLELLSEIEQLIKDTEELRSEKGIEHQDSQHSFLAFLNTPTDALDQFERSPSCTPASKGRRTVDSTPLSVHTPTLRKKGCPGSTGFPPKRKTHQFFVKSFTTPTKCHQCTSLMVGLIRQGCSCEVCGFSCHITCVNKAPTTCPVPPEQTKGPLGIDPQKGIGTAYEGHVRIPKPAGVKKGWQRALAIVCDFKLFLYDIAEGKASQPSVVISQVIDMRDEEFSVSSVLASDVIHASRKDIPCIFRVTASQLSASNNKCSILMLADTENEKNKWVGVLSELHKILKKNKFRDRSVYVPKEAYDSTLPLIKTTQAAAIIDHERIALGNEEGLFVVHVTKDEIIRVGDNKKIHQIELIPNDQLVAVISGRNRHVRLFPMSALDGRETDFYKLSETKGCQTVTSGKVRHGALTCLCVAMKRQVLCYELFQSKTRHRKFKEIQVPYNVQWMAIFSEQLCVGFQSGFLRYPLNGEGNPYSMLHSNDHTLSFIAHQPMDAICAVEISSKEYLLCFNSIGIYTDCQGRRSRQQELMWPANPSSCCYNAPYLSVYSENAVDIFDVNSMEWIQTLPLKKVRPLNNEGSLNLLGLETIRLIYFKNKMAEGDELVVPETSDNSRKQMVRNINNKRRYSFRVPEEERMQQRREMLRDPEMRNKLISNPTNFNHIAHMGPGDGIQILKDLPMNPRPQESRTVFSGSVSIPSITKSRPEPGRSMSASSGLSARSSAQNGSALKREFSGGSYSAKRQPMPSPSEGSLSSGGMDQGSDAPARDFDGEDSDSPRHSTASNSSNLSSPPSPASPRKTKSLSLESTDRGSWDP
Read-out: enzyme activity
Mode: inhibitor
Tested at: 0.5 µM
Reference: control
Compound | remaining activity [%]
CC(C)n1cnc2c(Nc3cccc(Cl)c3)nc(NCCO)nc21 | 83.9
CC(C)N(CCC(=O)c1ccc2ccccc2c1)Cc1ccccc1 | 99.4
NC(=O)c1cccc(-c2cc(Nc3ccc(OC(F)(F)F)cc3)ncn2)c1 | 99.3
O=C(c1ccccc1)c1ccc(N2CCOCC2)cc1O | 95.5
O=C1c2ccccc2-c2nc3nnnn3nc21 | 91.6
O=C1NC(=O)/C(=C/c2ccc3c(c2)OC(F)(F)O3)S1 | 98.5
Nc1nc(Nc2ccc(S(N)(=O)=O)cc2)nn1C(=S)Nc1c(F)cccc1F | 54.6
CNc1cc2c(Nc3cccc(Br)c3)ncnc2cn1 | 95.2
C[C@@H](N)[C@H]1CC[C@H](C(=O)Nc2ccncc2)CC1 | 83.4
FC(F)(F)c1ccc(/C=C/c2nc(COc3ccc(CCCCn4ccnn4)cc3)co2)cc1 | 103
NC(=O)c1ccc(-c2nc(-c3ccc4c(c3)OCCO4)c(-c3ccccn3)[nH]2)cc1 | 99.3
O=C(O)/C=C/c1cc(Br)c(Br)c(Br)c1Br | 98.5
c1cc(-c2cnn3cc(-c4ccc(OCCN5CCCCC5)cc4)cnc23)ccn1 | 100
O=c1c(-c2ccc(F)cc2)c(-c2ccncc2)[nH]n1-c1ccc(Cl)cc1 | 98
COc1cc2c(Nc3ccc(Br)cc3F)ncnc2cc1OCC1CCN(C)CC1 | 83.7
COc1cc2c(N3CCN(C(=O)Nc4ccc(OC(C)C)cc4)CC3)ncnc2cc1OCCCN1CCCCC1 | 106
CCCCc1c(-c2ccc(O)cc2)[nH]c2nccnc12 | 99.3
CC(C)(C)c1nc2c3cc[nH]c(=O)c3c3cc(F)ccc3c2[nH]1 | 95.7
N#C/C(=C(/N)SC1C=CC=CC1)c1cccc(C(O)c2ccncc2)c1 (stereo not drawn) | 104
Clc1ccc(Nc2nnc(Cc3ccncc3)c3ccccc23)cc1 | 78.3
CCN(CC)CCCCN1c2ccccc2Oc2ccc(Cl)cc21 | 111

Set 2
Structure (SMILES): Cc1cc(-n2nc(Cc3cc(F)cc(C(F)(F)F)c3)nc2C)ccc1C(N)=O
Read-out: cell-free assay
Method: competition with immobilised ligand
Tested at: 1 µM
target | remaining binding [%]
Aurora kinase C (AURKC, Homo sapiens, UniProt Q9UQB9) | 100
Dual specificity protein kinase TTK (TTK, Homo sapiens, UniProt P33981) | 90
Mitogen-activated protein kinase kinase kinase 4 (MAP3K4, Homo sapiens, UniProt Q9Y6R4) | 98
Serine/threonine-protein kinase SIK2 (SIK2, Homo sapiens, UniProt Q9H0K1) | 100
Phosphatidylinositol 4,5-bisphosphate 3-kinase catalytic subunit alpha isoform (PIK3CA, Homo sapiens, UniProt P42336, E542K) | 73
Casein kinase I isoform alpha-like (CSNK1A1L, Homo sapiens, UniProt Q8N752) | 100
Activin receptor type-1B (ACVR1B, Homo sapiens, UniProt P36896) | 93
Serine/threonine-protein kinase TAO3 (TAOK3, Homo sapiens, UniProt Q9H2K8) | 83
Casein kinase II subunit alpha' (CSNK2A2, Homo sapiens, UniProt P19784) | 91
Receptor-type tyrosine-protein kinase FLT3 (FLT3, Homo sapiens, UniProt P36888, D835V/ITD) | 100
Cyclin-dependent kinase 17 (CDK17, Homo sapiens, UniProt Q00537) | 77
Ephrin type-A receptor 8 (EPHA8, Homo sapiens, UniProt P29322) | 100
Tyrosine-protein kinase HCK (HCK, Homo sapiens, UniProt P08631) | 100
Ribosomal protein S6 kinase alpha-2, N-terminal kinase domain (RPS6KA2, Homo sapiens, UniProt Q15349) | 100
Serine/threonine-protein kinase D3 (PRKD3, Homo sapiens, UniProt O94806) | 81

Set 3
Cell line: Huh-7
Tested at: 10 µM
Time: 24 h
Structure (SMILES) | viability [%]
O=C1O[C@H]([C@@H](O)CO)C(O)=C1O | 98.5
CN(C)CCCN1c2ccccc2Sc2ccc(Cl)cc21 | 105
C=CCSCC1Nc2cc(Cl)c(S(N)(=O)=O)cc2S(=O)(=O)N1 (stereo not drawn) | 97.1
CC(=O)N(O)CCCCCNC(=O)CCC(=O)N(O)CCCCCNC(=O)CCC(=O)N(O)CCCCCN | 89.3
C=CCCCCCCCCC(=O)O | 98.5

Further values, each from its own experiment
SMILES | test system | setting | measurement | value
CC(C)n1cnc(-c2ccc(F)cc2)c1-c1ncc(C(=O)Nc2ccc(N3CCN(C)CC3)cc2)[nH]1 | human, idiopathic pulmonary fibrosis | 60 mg once daily, trial, treatment-emergent | patients with ECG T wave abnormal | 0%

For quick reference, copied from above (set 2):
target | remaining binding [%]
Aurora kinase C (AURKC, Homo sapiens, UniProt Q9UQB9) | 100
Dual specificity protein kinase TTK (TTK, Homo sapiens, UniProt P33981) | 90
Mitogen-activated protein kinase kinase kinase 4 (MAP3K4, Homo sapiens, UniProt Q9Y6R4) | 98
